Assay results gathered from unrelated publications.
Partner: itself
B1: Il2/Il2ra IL-2 fused to CD25 ectodomain (Mus musculus); chain APTSSSTSSSTAEAQQQQQQQQQQQQHLEQLLMDLQELLSRMENYRNLKLPRMLTFKFYLPKQATELKDLQCLEDELGPLRHVLDLTQSKSFQLEDAENFISNIRVTVVKLKGSDNTFECQFDDESATVVDFLRRWIAFCQSIISTSPQGGGSGGGSGGGSELCLYDPPEVPNATFKALSYKNGTILNCECKRGFRRLKELVYMRCLGNSWSSNCQCTSNSHDKSRKQVTAQLEHQKEQQTTTDMQKPTQSMHQENLTGHCREPPPWKHEDSKRIYHFVEGQSVHYECIPGYKALQRGPAISICKMKCGKTGWTQPQLTCVDEREHHRFLASEESQGSRNSSPESETSCPITTTDFPQPTETTAMTETFVLTMEYKGG
B2: aqpZ 1-231 C20S/W14A/G144F (Escherichia coli, UniProt P60844); chain MFRKLAAECFGTFALVFGGSGSAVLAAGFPELGIGFAGVALAFGLTVLTMAFAVGHISGGHFNPAVTIGLWAGGRFPAKEVVGYVIAQVVGGIVAAALLYLIASGKTGFDAAASGFASNGYGEHSPGGYSMLSALVVELVLSAFFLLVIHGATDKFAPAGFAPIAIGLALTLIHLISIPVTNTSVNPARSTAVAIFQGGWALEQLWFFWVVPIVGGIIGGLIYRTLLEKRD
B3: Ptpn5 C65S/C76S (Mus musculus, UniProt P54830-1); sequence looked up; chain MCCSERLLGLPQPVEMEAPDEAEGLPSKQKEMPPPPPPSPPSEPAQKLPPQGAGSHSLTVRSSLSLFAASQFLLASGVLWLSGHGHSWLQNTTDLISSSLTVLNHLGPVAWLGSGTWGIPSLLLVSLTVSLVIVTTLVWHLLKAPPEPPAPLPPEDRRQSVSRQPSFTYSEWMEEKVEDDFLDLDAVPETPVFDCVMDIKPETDPASLTVKSMGLQERRGSNVSLTLDMCTPGCNEEGFGYLVSPREESAHEYLLSASRVLRAEELHEKALDPFLLQAEFFEIPMNFVDPKEYDIPGLVRKNRYKTILPNPHSRVRLTSPDPEDPLSSYINANYIRGYSGEEKVYIATQGPIVSTVADFWRMVWQERTPIIVMITNIEEMNEKCTEYWPEEQVVHDGVEITVQKVIHTEDYRLRLISLRRGTEERSLKHYWFTSWPDQKTPDRAPPLLHLVREVEEAAQQEGPHCSPIIVHCSAGIGRTGCFIATSICCQQLRREGVVDILKTTCQLRQDRGGMIQTCEQYQFVHHAMSLYEKQLSLQSSE
B4: aqpZ 1-231 C20S/W14A (Escherichia coli, UniProt P60844); chain MFRKLAAECFGTFALVFGGSGSAVLAAGFPELGIGFAGVALAFGLTVLTMAFAVGHISGGHFNPAVTIGLWAGGRFPAKEVVGYVIAQVVGGIVAAALLYLIASGKTGFDAAASGFASNGYGEHSPGGYSMLSALVVELVLSAGFLLVIHGATDKFAPAGFAPIAIGLALTLIHLISIPVTNTSVNPARSTAVAIFQGGWALEQLWFFWVVPIVGGIIGGLIYRTLLEKRD
B5: ITGB4 1126-1752 (Homo sapiens, UniProt P16144-2); sequence looked up; chain DLGAPQNPNAKAAGSRKIHFNWLPPSGKPMGYRVKYWIQGDSESEAHLLDSKVPSVELTNLYPYCDYEMKVCAYGAQGEGPYSSLVSCRTHQEVPSEPGRLAFNVVSSTVTQLSWAEPAETNGEITAYEVCYGLVNDDNRPIGPMKKVLVDNPKNRMLLIENLRESQPYRYTVKARNGAGWGPEREAIINLATQPKRPMSIPIIPDIPIVDAQSGEDYDSFLMYSDDVLRSPSGSQRPSVSDDTEHLVNGRMDFAFPGSTNSLHRMTTTSAAAYGTHLSPHVPHRVLSTSSTLTRDYNSLTRSEHSHSTTLPRDYSTLTSVSSHDSRLTAGVPDTPTRLVFSALGPTSLRVSWQEPRCERPLQGYSVEYQLLNGGELHRLNIPNPAQTSVVVEDLLPNHSYVFRVRAQSQEGWGREREGVITIESQVHPQSPLCPLPGSAFTLSTPSAPGPLVFTALSPDSLQLSWERPRRPNGDIVGYLVTCEMAQGGGPATAFRVDGDSPESRLTVPGLSENVPYKFKVQARTTEGFGPEREGIITIESQDGGPFPQLGSRAGLFQHPLQSEYSSITTTHTSATEPFLVDGLTLGAQHLEAGGSLTRHVTQEFVSRTLTTSGTLSTHMDQQFFQT
B6: IRF3 189-427 (Homo sapiens, UniProt Q14653); phosphorylated by TBK1; sequence looked up; chain ENPLKRLLVPGEEWEFEVTAFYRGRQVFQQTISCPEGLRLVGSEVGDRTLPGWPVTLPDPGMSLTDRGVMSYVRHVLSCLGGGLALWRAGQWLWAQRLGHCHTYWAVSEELLPNSGHGPDGEVPKDKEGGVFDLGPFIVDLITFTEGSGRSPRYALWFCVGESWPQDQPWTKRLVMVKVVPTCLRALVEMARVGGASSLENTVDLHISNSHPLSLTSDQYKAYLQDLVEGMDFQGPGES
B7: Xrcc1 535-631 (Mus musculus, UniProt Q60596); sequence looked up; chain PELPDFFEGKHFFLYGEFPGDERRRLIRYVTAFNGELEDYMNERVQFVITAQEWDPNFEEALMENPSLAFVRPRWIYSCNEKQKLLPHQLYGVVPQA

`B1` has a pSTAT5 induction of 555 fold (pSTAT5; mouse splenic Tregs; 15 min; baseline: mIL-2, higher = stronger signaling).
With `B2 (aqpZ 1-231 C20S/W14A/G144F)` the channel permeability was 9.5e-14 cm^3 s^–1 (light scattering; proteoliposomes; hyperosmotic shock).
`DIQKVAGTWY (LGB 11-20 (Bos taurus); N-acetyl, C-terminal amide)` — result for binding: “binds” (solid-state NMR; peptide).
`CRYAA R21W (Homo sapiens) (sequence not shown)`: binding “binds” (SEC-MALS).
`B3 (Ptpn5 C65S/C76S)` has a phosphatase activity of 4 fold (pNPP dephosphorylation; HEK 293; immunoprecipitated; baseline: STEP61 WT, higher = more activity).
For `B4 (aqpZ 1-231 C20S/W14A)`, the channel permeability was 4.1e-14 cm^3 s^–1 (light scattering; proteoliposomes; hyperosmotic shock).
The relative binding of `B5 (ITGB4 1126-1752)` is reported as 5 fold (time-resolved fluorometry overlay assay; NaCl 500 mM; baseline: lower NaCl binding, higher = more binding).
For `B6 (IRF3 189-427)`, binding read “binds” (SEC).
`CRYAA R116H (Homo sapiens) (sequence not shown)`: binding “binds” (SEC-MALS).
For `B7 (Xrcc1 535-631)`, “apparent melting temperature” read 54.3 °C (circular dichroism).
